Published values from different studies.
Organism: Escherichia coli

Structure (SMILES) | assay | system | conditions | MIC
CC1(C)[C@H](NC(=O)/C(=N\OCc2cc(=O)c(O)cn2O)c2csc(N)n2)C(=O)N1OS(=O)(=O)O | agar dilution | 08-85 mcr-1 | – | 1 µg/mL
CCCCCCCCCC(=O)N[C@@H](Cc1c[nH]c2ccccc12)C(=O)N[C@H](CC(N)=O)C(=O)N[C@@H](CC(=O)O)C(=O)N[C@@H]1C(=O)NCC(=O)N[C@@H](CCCNC(=O)CNC(=O)[C@H](CC(N)=O)NC(=O)[C@H](C)NC(=O)[C@H](CC(N)=O)NC(=O)CNC(=O)[C@@H](NC(=O)[C@H](CCCNC(=N)N)NC(=O)[C@H](CCSC)NC=O)[C@@H](C)O)C(=O)N[C@@H](CC(=O)O)C(=O)N[C@H](C)C(=O)N[C@@H](CC(=O)O)C(=O)NCC(=O)N[C@H](CO)C(=O)N[C@@H]([C@H](C)CC(=O)O)C(=O)N[C@@H](CC(=O)c2ccccc2N)C(=O)O[C@@H]1C | broth dilution | K12 MG1655 efflux knock-out | – | 140 µM
O=C(O)CN(CCOCCOCCN(CC(=O)O)CC(=O)O)CC(=O)O | – | NDM-1 producing | compound alone | > 2000 µM
CC[C@H](C)[C@H](NC(=O)[C@H](CC(C)C)NC(=O)[C@H](CCCNC(=N)N)NC(=O)CNC(=O)CNC(=O)[C@H](CCCCN)NC(=O)[C@H](CCCNC(=N)N)NC(=O)[C@H](CC(C)C)NC(=O)[C@H](CC(C)C)NC(=O)[C@H](CCCNC(=N)N)NC(=O)[C@@H](NC(=O)[C@H](CC(C)C)NC(=O)[C@@H](N)CO)[C@@H](C)O)C(=O)NCC(=O)N[C@@H](Cc1c[nH]c2ccccc12)C(=O)N[C@@H](CCCNC(=N)N)C(=O)N[C@@H](Cc1c[nH]c2ccccc12)C(=O)N[C@@H](CCC(=O)O)C(=O)N[C@@H](CCCCN)C(=O)N[C@H](C(=O)N[C@@H](CCCNC(=N)N)C(=O)N[C@@H](CC(N)=O)C(=O)N[C@@H](Cc1c[nH]c2ccccc12)C(=O)N[C@H](C(=O)N[C@@H](CCCNC(=N)N)C(=O)N[C@@H](CCCNC(=N)N)C(=O)N[C@H](C(=O)N[C@H](C(=O)N[C@@H](CCC(=O)O)C(=O)N[C@@H](CCCCN)C(=O)N[C@@H](CCCNC(=N)N)C(=O)N[C@@H](CCCCN)C(=O)N1CCC[C@H]1C(=O)N[C@@H](CC(N)=O)C(=O)N[C@@H](CCCCN)C(=O)O)[C@@H](C)CC)[C@@H](C)CC)[C@@H](C)CC)[C@@H](C)O | broth microdilution | K88, Mueller-Hinton broth | 37 °C | 8.79 µg/mL
CC[C@H](C)[C@H](NC(=O)[C@@H](CCCNC(=N)N)NC(=O)[C@H](CCCNC(=N)N)NC(=O)[C@H](Cc1ccccc1)NC(=O)[C@H](Cc1c[nH]c2ccccc12)NC(=O)[C@H](CCCNC(=N)N)NC(=O)[C@@H]1CCCN1C(=O)[C@H](CCCNC(=N)N)NC(=O)[C@@H]1CCCN1C(=O)[C@H](CC(C)C)NC(=O)[C@H](Cc1ccc(O)cc1)NC(=O)[C@@H]1CCCN1C(=O)[C@@H]1CCCN1C(=O)[C@H](CCCCN)NC(=O)[C@H](CC(=O)O)NC(=O)[C@@H](N)C(C)C)C(=O)N[C@@H](Cc1ccc(O)cc1)C(=O)N[C@@H](CC(N)=O)C(=O)N[C@H](CCCNC(=N)N)C(N)=O | broth microdilution | BW25113 | 18 h, 37 °C, 25% MHB2 | 32 µg/mL
CC[C@H](C)[C@H](NC(=O)CNC(=O)[C@H](CCCCN)NC(=O)[C@H](CCCCN)NC(=O)[C@H](CCC(N)=O)NC(=O)[C@H](CC(C)C)NC(=O)[C@H](CCCCN)NC(=O)[C@H](CC(C)C)NC(=O)[C@H](CC(C)C)NC(=O)[C@H](CCCCN)NC(=O)[C@H](CCCCN)NC(=O)[C@H](CC(C)C)NC(=O)[C@H](CC(C)C)NC(=O)[C@H](CCCCN)NC(=O)[C@H](CCSC)NC(=O)[C@H](C)NC(=O)[C@H](CCCCN)NC(=O)[C@@H]1CCCN1C(=O)[C@H](C)N)C(=O)O | – | BL21(DE3), Mueller-Hinton broth | 20 h | 1.96 µM
CO[C@@H](C(N)=O)[C@H](NC(=O)c1ccc(NC(=O)[C@@H](N)Cc2ccccc2)cc1)C(=O)Nc1ccc(C(=O)Nc2ccc(C(=O)Nc3ccc(C(=O)O)c(O)c3OC(C)C)c(O)c2OC(C)C)cc1 | – | empty cosmid vector | 16 h, 37 °C | 0.031 µg/mL
CC[C@H](C)[C@H](NC(=O)[C@@H](CCCNC(=N)N)NC(=O)[C@H](CCCNC(=N)N)NC(=O)[C@@H]1CCCN1C(=O)[C@@H]1CCCN1C(=O)[C@H](Cc1c[nH]cn1)NC(=O)[C@@H]1CCCN1C(=O)[C@H](CCCNC(=N)N)NC(=O)[C@@H]1CCCN1C(=O)[C@H](CC(C)C)NC(=O)[C@H](Cc1ccc(O)cc1)NC(=O)[C@@H]1CCCN1C(=O)[C@@H]1CCCN1C(=O)[C@H](CCCCN)NC(=O)[C@H](CC(=O)O)NC(=O)[C@@H](N)C(C)C)C(=O)N[C@@H](Cc1ccc(O)cc1)C(=O)N[C@@H](CC(N)=O)C(=O)N[C@H](CCCNC(=N)N)C(N)=O | broth microdilution | BW25113 | 18 h, 37 °C, 25% MHB2 | 8 µg/mL
CC[C@H](C)[C@H](NC(=O)[C@H](Cc1c[nH]c2ccccc12)NC(=O)c1ccccc1)C(=O)N[C@@H](CCCNC(=N)N)C(=O)N[C@@H](Cc1ccc(O)cc1)C(=O)N[C@@H](CCCCN)C(=O)N[C@@H](Cc1c[nH]c2ccccc12)C(=O)N[C@H](CCCNC(=N)N)C(=O)N[C@@H](CCCNC(=N)N)C(=O)N[C@@H](CCCCN)C(=O)N[C@@H](CCCCN)C(=O)N[C@H](C(=O)N[C@@H](CCCNC(=N)N)C(=O)N[C@@H](Cc1ccc(O)cc1)C(=O)N[C@@H](Cc1c[nH]c2ccccc12)C(=O)N[C@H](C(=O)NCC(=O)N1CCC[C@H]1C(N)=O)[C@@H](C)O)C(C)C | – | DH5α | 16 h, 37 °C | 25 µM
CC[C@H](C)[C@H](NC(=O)[C@@H](CCCNC(=N)N)NC(=O)[C@H](CCCNC(=N)N)NC(=O)[C@H](C)NC(=O)[C@H](Cc1c[nH]c2ccccc12)NC(=O)[C@H](CCCNC(=N)N)NC(=O)[C@@H]1CCCN1C(=O)[C@H](CCCNC(=N)N)NC(=O)[C@@H]1CCCN1C(=O)[C@H](CC(C)C)NC(=O)[C@H](Cc1ccc(O)cc1)NC(=O)[C@@H]1CCCN1C(=O)[C@@H]1CCCN1C(=O)[C@H](CCCCN)NC(=O)[C@H](CC(=O)O)NC(=O)[C@@H](N)C(C)C)C(=O)N[C@@H](Cc1ccc(O)cc1)C(=O)N[C@@H](CC(N)=O)C(=O)N[C@H](CCCNC(=N)N)C(N)=O | broth microdilution | ATCC 25922 | 18 h, 37 °C, 25% MHB2 | 8 µg/mL
CC(C)C[C@@H]1NC(=O)[C@H](CCCNC(=N)N)NC(=O)[C@H](CCCNC(=N)N)NC(=O)[C@@H](NC(=O)[C@@H](N)CCC(=O)O)CSSC[C@@H](C(=O)N[C@@H](CCCNC(=N)N)C(=O)NCC(=O)N[C@@H](CCCNC(=N)N)C(N)=O)NC(=O)[C@H](Cc2ccc(O)cc2)NC(=O)[C@H]([C@@H](C)O)NC(=O)[C@H](C(C)C)NC(=O)[C@H](Cc2c[nH]c3ccccc23)NC(=O)[C@H](CCCNC(=N)N)NC(=O)CNC(=O)[C@H](CCCCN)NC(=O)[C@H](Cc2ccc(O)cc2)NC(=O)[C@H](Cc2c[nH]c3ccccc23)NC1=O | bacterial growth, broth dilution, OD600 | DH5α, LB medium | 16 h, 37 °C | > 100 µM
CC[C@H](C)[C@H](NC(=O)[C@@H](CCCNC(=N)N)NC(=O)[C@H](CCCNC(=N)N)NC(=O)[C@H](CC(=O)O)NC(=O)[C@H](Cc1c[nH]c2ccccc12)NC(=O)[C@H](CCCNC(=N)N)NC(=O)[C@@H]1CCCN1C(=O)[C@H](CCCNC(=N)N)NC(=O)[C@@H]1CCCN1C(=O)[C@H](CC(C)C)NC(=O)[C@H](Cc1ccc(O)cc1)NC(=O)[C@@H]1CCCN1C(=O)[C@@H]1CCCN1C(=O)[C@H](CCCCN)NC(=O)[C@H](CC(=O)O)NC(=O)[C@@H](N)C(C)C)C(=O)N[C@@H](Cc1ccc(O)cc1)C(=O)N[C@@H](CC(N)=O)C(=O)N[C@H](CCCNC(=N)N)C(N)=O | broth microdilution | BW25113 | 18 h, 37 °C, 25% MHB2 | 8 µg/mL
CC(C)C[C@@H](NC(=O)[C@H](NC(=O)[C@@H](CCCCN)NC(=O)[C@@H](CCCCN)NC(=O)[C@@H](CC(C)C)NC(=O)[C@@H](Cc1c[nH]c2ccccc12)NC(=O)[C@@H](CCCCN)NC(=O)[C@@H](Cc1c[nH]c2ccccc12)NC(=O)[C@@H](CC(C)C)NC(=O)[C@@H](CCCCN)NC(=O)[C@@H](CCCCN)NC(=O)[C@H](N)C(C)C)C(C)C)C(N)=O | – | – | 24 h, 37 °C, Mueller-Hinton broth, MgCl2 1 mM | 8 µM
CC[C@H](C)[C@H](NC(=O)[C@@H](CCCNC(=N)N)NC(=O)[C@H](CCCNC(=N)N)NC(=O)[C@@H]1CCCN1C(=O)[C@@H]1CCCN1C(=O)[C@H](CCCNC(=N)N)NC(=O)[C@@H]1CCCN1C(=O)[C@H](CCCNC(=N)N)NC(=O)[C@@H]1CCCN1C(=O)[C@H](CC(C)C)NC(=O)[C@H](Cc1c[nH]c2ccccc12)NC(=O)[C@@H]1CCCN1C(=O)[C@@H]1CCCN1C(=O)[C@H](CCCCN)NC(=O)[C@H](CC(=O)O)NC(=O)[C@@H](N)C(C)C)C(=O)N[C@@H](Cc1ccc(O)cc1)C(=O)N[C@@H](CC(N)=O)C(=O)N[C@H](CCCNC(=N)N)C(N)=O | broth microdilution | MC4100 | 18 h, 37 °C, 25% MHB2 | 4 µg/mL
CCCCCCCC(=O)N[C@@H](CCN)C(=O)N[C@H](C(=O)N[C@@H](CCN)C(=O)N[C@H]1CCNC(=O)[C@H]([C@@H](C)O)NC(=O)[C@H](CCN)NC(=O)[C@H](CCN)NC(=O)[C@H](CC(C)C)NC(=O)[C@@H](Cc2ccc(Cl)cc2)NC(=O)[C@H](CCN)NC1=O)[C@@H](C)O | broth microdilution | ATCC 25922, colistin-susceptible | – | < 0.125 µg/mL
